# Assay results of several laboratories.
# Compare with care: the assays were run in different laboratories. Numbers after ± are the reported error.
Structure (SMILES),assay,system,conditions,tissue uptake
O=C([O-])CN1CCN(CC(=O)[O-])CCN(CC(=O)NCCc2ccc3c(c2)C2C=CCC2C(c2cc4c(cc2Br)OCO4)N3)CCN(CC(=O)[O-])CC1.[111In+3] (centres unmarked),,"mouse, Hec50 endometrial tumour, uterus",2 h post injection,0.69 ± 0.08 %ID/g
CN(C)c1ccc(-c2nc3ccc(OCCCCCN4CCN5CCN(CC4)CC(=O)[O][Al]([18F])[O]C(=O)C5)cc3s2)cc1,,"ICR mouse, heart","intravenous, 60 min",0.62 ± 0.26 %ID/g
CCCC[C@H](NC(=O)CNC(=O)CNC(=O)CN1CCN(CC(=O)O)CCN(CC(=O)O)CC1)C(=O)N[C@H]1CC(=O)NCCCC[C@@H](C(N)=O)NC(=O)[C@H](Cc2c[nH]c3ccccc23)NC(=O)[C@H](CCCNC(=N)N)NC(=O)[C@@H](Cc2ccccc2)NC(=O)[C@H](Cc2c[nH]cn2)NC1=O [gallium-67 labelled],,"female C57 mice, B16/F1 melanoma, muscle","intravenous, 0.037 MBq, 24 h",0.99 ± 0.56 %ID/g
C[C@H](CN(C)Cc1ccccc1)NC(=O)c1ccc(-c2noc(C(F)(F)[18F])n2)cc1,PET imaging,"female Sprague-Dawley rats, muscle","intravenous, 60 min",0.59 ± 0.15 SUV
CCCC[C@H](NC(=O)CNC(=O)CNC(=O)CN1CCN(CC(=O)O)CCN(CC(=O)O)CC1)C(=O)N[C@H]1CC(=O)NCCCC[C@@H](C(N)=O)NC(=O)[C@H](Cc2c[nH]c3ccccc23)NC(=O)[C@H](CCCNC(=N)N)NC(=O)[C@@H](Cc2ccccc2)NC(=O)[C@H](Cc2c[nH]cn2)NC1=O [copper-64 labelled],,"female C57 mouse, B16/F1 melanoma, liver","intravenous, 0.037 MBq, 4 h",0.75 ± 0.17 %ID/g
CCCC[C@@H]1NC(=O)[C@@H](NC(=O)[C@H](CCC(=O)O)NC(=O)CNC(=O)CN2CCN(CC(=O)O)CCN(CC(=O)O)CCN(CC(=O)O)CC2)CCCCNC(=O)C[C@@H](C(N)=O)NC(=O)[C@H](C(C)C)NC(=O)[C@@H]2CCCN2C(=O)[C@H](CCCNC(=N)N)NC(=O)CNC(=O)[C@H](Cc2c[nH]c3ccccc23)NC(=O)[C@H](CCCNC(=N)N)NC(=O)[C@@H](Cc2ccccc2)NC(=O)[C@H](Cc2c[nH]cn2)NC(=O)[C@H](CCC(=O)O)NC1=O [gallium-67 labelled],,"C57 mice, B16/F1 flank melanoma, bone","intravenous, 0.037 MBq/mouse, 24 h",0.21 ± 0.2 %ID/g
O=C(O)C1CN(Cc2ccc(-c3noc(-c4ccc(OCC[18F])c(C(F)(F)F)c4)n3)cc2)C1,,"male Sprague-Dawley rat, muscle","intravenous, 30 min",0.145 ± 0.013 %ID/g
CC(C)[C@H](NC(=O)[C@@H]1CCCN1C(=O)[C@H](CCCNC(=N)N)NC(=O)[C@H](CS)NC(=O)[C@H](Cc1c[nH]c2ccccc12)NC(=O)[C@H](CCCNC(=N)N)NC(=O)[C@@H](Cc1ccccc1)NC(=O)[C@H](Cc1c[nH]cn1)NC(=O)[C@H](CCC(=O)O)NC(=O)[C@H](CS)NC(=O)[C@H](CS)NC(=O)CNC(=O)[C@@H]1CC(=O)N[C@@H](CCCNC(=N)N)C(=O)NCC(=O)N[C@@H](CC(=O)O)C(=O)N[C@H](Cc2ccc(O)cc2)C(=O)N1)C(N)=O [technetium-99m labelled],,"C57 mouse, female, B16/F1 melanoma, blood","intravenous, 0.037 MBq, 0.5 h",5.07 ± 3.4 %ID/g

# For quick reference, copied from above:
Structure (SMILES),assay,system,conditions,tissue uptake
CCCC[C@@H]1NC(=O)[C@@H](NC(=O)[C@H](CCC(=O)O)NC(=O)CNC(=O)CN2CCN(CC(=O)O)CCN(CC(=O)O)CCN(CC(=O)O)CC2)CCCCNC(=O)C[C@@H](C(N)=O)NC(=O)[C@H](C(C)C)NC(=O)[C@@H]2CCCN2C(=O)[C@H](CCCNC(=N)N)NC(=O)CNC(=O)[C@H](Cc2c[nH]c3ccccc23)NC(=O)[C@H](CCCNC(=N)N)NC(=O)[C@@H](Cc2ccccc2)NC(=O)[C@H](Cc2c[nH]cn2)NC(=O)[C@H](CCC(=O)O)NC1=O [gallium-67 labelled],,"C57 mice, B16/F1 flank melanoma, bone","intravenous, 0.037 MBq/mouse, 24 h",0.21 ± 0.2 %ID/g
